Results collected from several papers.
Each line is one published result; not all experiments were run side by side. Several values in a cell are separate wells, animals, samples, runs or records. ± marks the error that the study gave.

CCC1CC(c2ccc(C(=O)O)cc2C)=NN1c1ccc(C#N)c(Cl)c1 (stereo not shown) — intrinsic clearance (mouse, liver microsomes; 1 µM): < 5 µL/min/mg
CC[C@H](C)[C@H](NC(=O)[C@H](Cc1ccc(O)cc1)NC(=O)[C@@H](NC(=O)[C@H](CCCNC(=N)N)NC(=O)[C@@H](N)CC(=O)O)C(C)C)C(=O)N[C@@H](Cc1c[nH]cn1)C(=O)N1CCC[C@H]1C(=O)O — tolerability (Sprague-Dawley rat; sc, 10 mg/kg once daily, 28 days): not toxic
CCCN(C)c1cc(C(F)(F)F)nc(SCCC(=O)NCc2ccco2)n1 — tolerability (measured: visible adverse effects; Wistar rat; intraperitoneal, 25 mg/kg single dose): not toxic
CCCC[C@H]1C(=O)N(C)[C@@H](CCCC)C(=O)N[C@@H](CCCNC(=O)CN2CCN(CC(=O)O)CCN(CC(=O)O)CCN(CC(=O)O)CC2)C(=O)N[C@H](C(=O)NCC(N)=O)CSCC(=O)N[C@@H](Cc2ccc(O)cc2)C(=O)N(C)[C@@H](C)C(=O)N[C@@H](CC(N)=O)C(=O)N2CCC[C@H]2C(=O)N[C@@H](Cc2c[nH]cn2)C(=O)N[C@@H](CC(C)C)C(=O)N(C)CC(=O)N[C@@H](Cc2c[nH]c3ccccc23)C(=O)N[C@@H](CO)C(=O)N[C@@H](Cc2c[nH]c3ccccc23)C(=O)N1C [gallium-68 labelled] — tissue uptake (NOD/SCID mice, CHO-hPD-L1 xenograft, lung; 60 min, PBS pretreatment): 5.66 ± 0.73 %ID/g
CC(C)=CCC/C(C)=C\CCn1cc(CC(P(=O)(O)O)P(=O)(O)O)nn1 — bile concentration (CD-1 mice, pooled bile; intravenous, 0.3 mg/kg, 24 h): not detected
CCOP(=O)([O-])CNC(=O)CN1CCN(CC(=O)NCP(=O)([O-])OCC)CCN(CC(=O)NCP(=O)([O-])OCC)CCN(CC(=O)NCP(=O)([O-])OCC)CC1.[177Lu+3] — logP (octanol/water; room temperature): -3.77 ± 0.37
COc1cnc2cccc(N3CCc4c(cc(Cn5ccnc5)cc4-c4cn(C)nc4C(F)(F)F)C3=O)c2c1 — body weight (BALB/c nude mice, MV4-11 xenograft; intraperitoneal, 100 mg/kg, day 17): 23.5 g and 24.5 g and 22.2 g and 22.8 g
C=CC(=O)Nc1cccc(Cn2ncc3cnc(Nc4cnn(CCOC)c4)nc32)c1 — serum LDL (female Sprague-Dawley rat; oral, 180 mg/kg/day, day 28, 28-day subacute toxicity): 0.1 ± 0.04 mM
N#[11C]c1ccc(-c2csc(NN=C3CCCC3)n2)cc1 — radioactivity uptake (dynamic PET/CT; C57BL/6 mouse, heart; intravenous, dose not given, end of PET scan): 0.5 SUV
CC[C@H](C)[C@H](NC(=O)[C@H](CCCCN)NC(=O)CNC(=O)[C@H](CC(C)C)NC(=O)[C@H](Cc1ccccc1)NC(=O)[C@H](CCCCN)NC(=O)[C@H](CO)NC(=O)[C@H](Cc1ccccc1)NC(=O)[C@H](Cc1c[nH]c2ccccc12)NC(=O)[C@H](CCC(N)=O)NC(=O)[C@@H](NC(=O)[C@H](Cc1ccccc1)NC(=O)CCCCCNC(=O)CN1CCN(CC(=O)O)CCN(CC(=O)O)CCN(CC(=O)O)CC1)C(C)C)C(=O)N[C@@H](CCC(=O)O)C(=O)N1CCC[C@H]1C(=O)N[C@@H](CC(=O)O)C(=O)N[C@H](C(=O)N[C@@H](CO)C(=O)N[C@@H](CCC(N)=O)C(=O)N[C@H](C(=O)N[C@@H](CCC(N)=O)C(=O)N[C@@H](CC(=O)O)C(=O)N1CCC[C@H]1C(=O)N[C@@H](CC(N)=O)C(=O)N[C@@H](CC(=O)O)C(=O)N[C@@H](CCC(N)=O)C(=O)N[C@@H](Cc1ccc(O)cc1)C(=O)N[C@@H](CCC(=O)O)C(=O)N1CCC[C@H]1C(=O)N[C@@H](Cc1ccccc1)C(=O)O)C(C)C)C(C)C [copper-64 labelled] — tissue uptake (C57BL/6 mice, male, tumour-free, kidneys; 0.5 h): 148 ± 7.9 %ID/g
CSCC[C@H](N)C(=O)N[C@@H](C)C(=O)N[C@@H](Cc1c[nH]c2ccccc12)C(=O)N[C@@H](Cc1c[nH]cn1)C(=O)N[C@@H](CC(=O)O)C(=O)N[C@@H](CC(=O)O)C(=O)N[C@@H](CCC(=O)O)C(=O)N[C@@H](CCC(=O)O)C(=O)N[C@@H](Cc1ccccc1)C(=O)N[C@@H](C)C(=O)N[C@@H](CCCNC(=N)N)C(=O)N[C@@H](CCCNC(=N)N)C(=O)N[C@@H](CCCNC(=N)N)C(=O)N[C@@H](CCCNC(=N)N)C(=O)NCCCCCC(=O)NCCCCC(NC(=O)CCCCCNC(=O)[C@H](CCCNC(=N)N)NC(=O)[C@H](CCCNC(=N)N)NC(=O)[C@H](CCCNC(=N)N)NC(=O)[C@H](CCCNC(=N)N)NC(=O)[C@H](C)NC(=O)[C@H](Cc1ccccc1)NC(=O)[C@H](CCC(=O)O)NC(=O)[C@H](CCC(=O)O)NC(=O)[C@H](CC(=O)O)NC(=O)[C@H](CC(=O)O)NC(=O)[C@H](Cc1c[nH]cn1)NC(=O)[C@H](Cc1c[nH]c2ccccc12)NC(=O)[C@H](C)NC(=O)[C@@H](N)CCSC)C(=O)NCCCCC(NC(=O)C(CCCCNC(=O)CCCCCNC(=O)[C@H](CCCNC(=N)N)NC(=O)[C@H](CCCNC(=N)N)NC(=O)[C@H](CCCNC(=N)N)NC(=O)[C@H](CCCNC(=N)N)NC(=O)[C@H](C)NC(=O)[C@H](Cc1ccccc1)NC(=O)[C@H](CCC(=O)O)NC(=O)[C@H](CCC(=O)O)NC(=O)[C@H](CC(=O)O)NC(=O)[C@H](CC(=O)O)NC(=O)[C@H](Cc1c[nH]cn1)NC(=O)[C@H](Cc1c[nH]c2ccccc12)NC(=O)[C@H](C)NC(=O)[C@@H](N)CCSC)NC(=O)CCCCCNC(=O)[C@H](CCCNC(=N)N)NC(=O)[C@H](CCCNC(=N)N)NC(=O)[C@H](CCCNC(=N)N)NC(=O)[C@H](CCCNC(=N)N)NC(=O)[C@H](C)NC(=O)[C@H](Cc1ccccc1)NC(=O)[C@H](CCC(=O)O)NC(=O)[C@H](CCC(=O)O)NC(=O)[C@H](CC(=O)O)NC(=O)[C@H](CC(=O)O)NC(=O)[C@H](Cc1c[nH]cn1)NC(=O)[C@H](Cc1c[nH]c2ccccc12)NC(=O)[C@H](C)NC(=O)[C@@H](N)CCSC)C(N)=O (stereo partly shown) — mean tissue distribution (C57BL/6 mouse female, lungs; dose not given, 6 h; relative to: total): 1.64%
CCCCCCCCCCCCCCCC(=O)N[C@@H](CCC(=O)NCCOCCOCCC(=O)NCCOCCOCCC(=O)NCCCC[C@H](NC(=O)[C@H](CC(=O)O)NC(=O)[C@H](CC(C)C)NC(=O)[C@H](Cc1ccc(O)cc1)NC(=O)[C@H](CCCCN)NC(=O)[C@H](CO)NC(=O)[C@H](Cc1ccc(O)cc1)NC(=O)[C@H](CC(=O)O)NC(=O)[C@H](CO)NC(=O)[C@@H](NC(=O)[C@H](Cc1ccccc1)NC(=O)[C@@H](NC(=O)CNC(=O)[C@H](CCC(N)=O)NC(=O)[C@@H](CO)NC(=O)[C@@H](N)Cc1c[nH]cn1)[C@@H](C)O)[C@@H](C)O)C(=O)N[C@@H](CCCNC(=N)N)C(=O)N[C@@H](CCCNC(=N)N)C(=O)N[C@@H](C)C(=O)N[C@@H](CCC(N)=O)C(=O)N[C@@H](CC(=O)O)C(=O)N[C@@H](Cc1ccccc1)C(=O)N[C@H](C(=O)N[C@@H](CCC(N)=O)C(=O)N[C@@H](Cc1c[nH]c2ccccc12)C(=O)N[C@@H](CC(C)C)C(=O)N[C@@H](CC(C)C)C(=O)N[C@@H](CC(N)=O)C(=O)N[C@H](C(=O)NCC(=O)NCC(=O)N1CCC[C@H]1C(=O)N[C@@H](CO)C(=O)N[C@@H](CO)C(=O)NCC(=O)N[C@@H](C)C(=O)N1CCC[C@H]1C(=O)N1CCC[C@H]1C(=O)N1CCC[C@H]1C(=O)N[C@@H](CO)C(N)=O)[C@@H](C)O)C(C)C)C(=O)O — serum enzyme activity (measured: ALT; Sprague-Dawley rat, male; subcutaneous, 500 µg/kg once daily, 14 days): 42.2 ± 8.8 U/L
CC(=O)NCCCC[C@@H]1NC(=O)[C@H](Cc2c[nH]c3c(C)cccc23)NC(=O)[C@H]([C@@H](C)O)NC(=O)[C@H](CC(N)=O)NC(=O)[C@@H](NC(C)=O)C(C)(C)SSC(C)(C)[C@@H](C(=O)N[C@@H](Cc2ccc(OCCN)cc2)C(=O)N[C@@H](Cc2ccc3ccccc3c2)C(=O)NC2(C(=O)N[C@@H](CCC(=O)O)C(=O)N[C@@H](CC(N)=O)C(=O)N[C@@H](Cc3cccnc3)C(=O)N(C)CC(N)=O)CCOCC2)NC1=O — blood to plasma ratio (dog, blood; 0.013 µM, 2 h): 0.84 ± 0.06
C=Cc1c(C)c2cc3nc(c(CC(=O)[O-])c4[n-]c(cc5nc(cc1[n-]2)C(C)=C5CC)c(C)c4C(=O)[O-])C(CCC(=O)[O-])C3C.[Cu+2].[Na+].[Na+].[Na+] (stereo not shown) — body weight (BALB/c mouse; oral, 5000 mg/kg, acute toxicity; relative to: untreated): no effect
CC[C@H](C)[C@H](NC(=O)[C@H](C)NC(=O)CNC(=O)[C@H](Cc1c[nH]cn1)NC(=O)[C@@H](NC(=O)[C@H](Cc1ccccc1)NC(=O)[C@H](CCCCN)NC(=O)CNC(=O)[C@H](C)NC(=O)[C@H](CCCCN)NC(=O)[C@H](Cc1ccccc1)NC(=O)[C@@H](NC(=O)[C@H](Cc1c[nH]cn1)NC(=O)[C@H](CCCCN)NC(=O)[C@H](Cc1ccccc1)NC(=O)[C@@H](NC(=O)[C@H](CO)NC(=O)CNC(=O)[C@H](Cc1c[nH]c2ccccc12)NC(=O)CNC(=O)[C@H](C)N)[C@@H](C)CC)[C@@H](C)CC)[C@@H](C)CC)C(=O)N[C@@H](CCC(N)=O)C(=O)N[C@@H](C)C(=O)N[C@@H](Cc1c[nH]cn1)C(=O)N[C@@H](CC(N)=O)C(=O)N[C@@H](CC(=O)O)C(N)=O — chronic toxic concentration (zebrafish embryos 28 hpf, E3 medium; 24 h): 5 µM
O=C1NC2(CC2)COc2ncc(F)cc2[C@H]2COCCN2c2ccn3ncc1c3n2 — eosinophil percentage (Sprague-Dawley rats, female, blood; oral, 5 mg/kg/day, end of treatment, 4-week subacute toxicity): 1.16 ± 0.2%

For quick reference, copied from above:
CC(C)=CCC/C(C)=C\CCn1cc(CC(P(=O)(O)O)P(=O)(O)O)nn1 — bile concentration (CD-1 mice, pooled bile; intravenous, 0.3 mg/kg, 24 h): not detected
